Measurements collected from several papers.
Numbered parts are unrelated; each lists some results of a single study. Positions count from the first letter of the parent shown.

Block 1 — method: universal PBM; molecule type: double-stranded DNA, one strand shown; matrix: in vitro; tested at: 600 nM; reading: higher = stronger binding
Target: Sal-like protein 4, full length isoform A (SALL4, Homo sapiens, UniProt Q9UJQ4, residues 1-1053)
Chain of UniProt Q9UJQ4 (whole entry, looked up): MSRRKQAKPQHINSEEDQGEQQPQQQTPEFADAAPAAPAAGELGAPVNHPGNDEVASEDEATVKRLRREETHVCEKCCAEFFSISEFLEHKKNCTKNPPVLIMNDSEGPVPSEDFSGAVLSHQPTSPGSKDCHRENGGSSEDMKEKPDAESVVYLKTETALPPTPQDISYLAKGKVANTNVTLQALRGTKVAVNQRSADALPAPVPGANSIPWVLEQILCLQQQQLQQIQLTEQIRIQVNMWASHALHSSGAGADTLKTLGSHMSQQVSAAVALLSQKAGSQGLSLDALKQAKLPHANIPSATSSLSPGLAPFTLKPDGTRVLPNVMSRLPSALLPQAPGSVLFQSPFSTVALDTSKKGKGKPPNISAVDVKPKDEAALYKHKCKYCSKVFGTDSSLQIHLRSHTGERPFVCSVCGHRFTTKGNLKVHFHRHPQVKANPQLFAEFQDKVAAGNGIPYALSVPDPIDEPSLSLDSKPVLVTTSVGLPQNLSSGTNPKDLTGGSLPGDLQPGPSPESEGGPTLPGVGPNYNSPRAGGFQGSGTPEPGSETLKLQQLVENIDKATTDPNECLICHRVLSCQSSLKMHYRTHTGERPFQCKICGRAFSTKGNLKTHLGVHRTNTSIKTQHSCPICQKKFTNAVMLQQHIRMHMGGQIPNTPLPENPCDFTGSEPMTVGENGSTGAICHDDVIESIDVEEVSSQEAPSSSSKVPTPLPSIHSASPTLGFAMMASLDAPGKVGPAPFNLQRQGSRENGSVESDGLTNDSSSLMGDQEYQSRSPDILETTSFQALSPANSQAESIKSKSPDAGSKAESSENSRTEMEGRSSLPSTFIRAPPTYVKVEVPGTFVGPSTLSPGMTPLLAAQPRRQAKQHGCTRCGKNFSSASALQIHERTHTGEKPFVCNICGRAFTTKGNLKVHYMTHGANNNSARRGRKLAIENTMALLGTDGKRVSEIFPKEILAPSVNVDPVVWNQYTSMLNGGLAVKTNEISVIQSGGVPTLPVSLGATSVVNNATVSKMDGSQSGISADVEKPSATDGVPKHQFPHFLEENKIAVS
Notes: 8-mer, flanks averaged, mean of replicates
With `AAAAGGTC` the E-score was -0.0291.
With `CACGTACC` the E-score was -0.0723.
`AATGACAT` has an E-score of 0.194.
For `CATTAGAG`, the E-score was 0.0279.
`GGGCAGCA` has an E-score of -0.347.
`GATCCAGC` has an E-score of -0.315.
`AATAGGCA` gave an E-score of 0.214.
The E-score of `CAACCTCA` is reported as -0.059.
With `GGAAAACC` the E-score was -0.139.
With `GGAGTCAA` the E-score was -0.0296.
The E-score of `AGACTAGC` is reported as -0.239.
`AACCGACG` gave an E-score of -0.156.
The E-score of `GCGACGTA` is reported as -0.135.
The E-score of `GAGTACAC` is reported as -0.0897.
`CAAATGTC` gave an E-score of 0.0284.
The E-score of `CTTTTGCC` is reported as 0.0583.
`ACGCCAAC` has an E-score of 0.0222.
The E-score of `CTCAATCC` is reported as 0.00672.

Block 2 — method: DHFR PCA, deep sequencing; matrix: yeast; with: (+)-ABA 0.032 µM; reference: wild-type fitted maximum; reading: higher = stronger binding
Target: ABI1, truncated, D143A, DHFR fusion (Arabidopsis thaliana)
Notes: methotrexate growth selection, single substitutions
Starting sequence: PYL1, truncated, DHFR fusion (Arabidopsis thaliana); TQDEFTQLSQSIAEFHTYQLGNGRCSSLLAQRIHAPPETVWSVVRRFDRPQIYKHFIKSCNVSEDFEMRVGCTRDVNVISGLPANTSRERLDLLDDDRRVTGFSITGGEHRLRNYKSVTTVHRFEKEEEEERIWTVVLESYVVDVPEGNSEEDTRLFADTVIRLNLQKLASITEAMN
For `C72R`, “relative binding score” read -1.61%.
For `R69M`, “relative binding score” read 9.85%.
`V145P`: “relative binding score” -9.16%.
Under “relative binding score”, `H122Y` is recorded as 5.2%.
`R113V` — result for “relative binding score”: 33.6%.
Under “relative binding score”, `D97N` is recorded as 24.5%.
`E152K`: “relative binding score” -0.0574%.
For `Q7Y`, “relative binding score” read 24.6%.
Under “relative binding score”, `S42W` is recorded as -4.35%.
For `Y115I`, “relative binding score” read 1.48%.
Under “relative binding score”, `I172C` is recorded as -6.05%.
`N114A`: “relative binding score” -2.1%.
Under “relative binding score”, `E147N` is recorded as 4.92%.
For `E89D`, “relative binding score” read 8.55%.
`H55E`: “relative binding score” 16.4%.
`T17W`: “relative binding score” -5.63%.
Under “relative binding score”, `I162R` is recorded as 8.21%.
`S59D` — result for “relative binding score”: 24.1%.
`H34C` — result for “relative binding score”: 35.7%.
For `C72W`, “relative binding score” read 7.97%.
For `Q31P`, “relative binding score” read -2.44%.
`L82C` — result for “relative binding score”: 15.8%.
Under “relative binding score”, `G148K` is recorded as -8.52%.
Under “relative binding score”, `E14G` is recorded as 1.72%.
`Q7M`: “relative binding score” 29.7%.

Block 3 — target: CCNA1, cyclin fold, Cln2 fusion (human); method: yeast growth competition, sequencing; matrix: yeast; notes: weak parent motif; reference: not given; reading: higher = stronger binding
Starting sequence: BRCA2 docking peptide (human); CKKRRALDFLSRL; partner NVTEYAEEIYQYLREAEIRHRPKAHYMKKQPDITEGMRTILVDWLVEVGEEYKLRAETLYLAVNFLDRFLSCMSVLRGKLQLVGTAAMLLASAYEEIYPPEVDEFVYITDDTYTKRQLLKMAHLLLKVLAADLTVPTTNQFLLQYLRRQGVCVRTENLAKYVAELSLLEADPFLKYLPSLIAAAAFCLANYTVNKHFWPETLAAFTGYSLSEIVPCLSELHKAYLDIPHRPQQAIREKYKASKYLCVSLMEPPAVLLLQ
`R5K`: “normalised enrichment score” -0.125.
For `C1A`, “normalised enrichment score” read -0.114.
Under “normalised enrichment score”, `S11A` is recorded as 0.346.
`K2A` — result for “normalised enrichment score”: 0.157.
`R12A` — result for “normalised enrichment score”: 0.678.
Under “normalised enrichment score”, `F9A` is recorded as 0.388.
Under “normalised enrichment score”, `L10A` is recorded as 0.489.

Block 4 — method: RNA Bind-n-Seq; molecule type: RNA; matrix: in vitro; tested at: 200 nM; notes: whole 134-nt RNA, ends assumed; with: 150 mM KCl; reference: input library; reading: higher = stronger binding
Target: Fragile X messenger ribonucleoprotein 1, C-terminal low-complexity region (Fmr1, Mus musculus, UniProt P35922)
All sequences stand within: GGGAGUUCUACAGUCCGACGAUC … UGGAAUUCUCGGGUGUCAAGG
The log2 enrichment of `CACAGACAACACGCACCCACACAGAGACAGAGGGAAGGGGUUGGGAUGGGGACAGGGUGCACAGCAGGGCGGGGUAGGACCCCAGCCCCU` is reported as 1.23.
For `AGUCCUGUGCUACACAUCGUAUGUACCGAAUCGGGGAAAGGGGAAAAAGGGGAGGGGAAAGUAUUAUGUUACGCCGUUCGGAUCUGCACU`, the log2 enrichment was 0.545.
The log2 enrichment of `AGUCCUGUGCUACACAUCGUAUGUACCGAAUCGGUUUUUUUGGUUUUUUUGGAAAGGAAAGUAUUAUGUUACGCCGUUCGGAUCUGCACU` is reported as -1.23.
The log2 enrichment of `ACCAUGCAGGUGGGCAUCUUUGGGAAGUGGGGCAACGGGGGGAUAGGGAGGGGGGUAACACUUUGGGAACAGGUGGUCCCAGGUCGUUUC` is reported as 0.659.
`AAGUCCUGUGCUACACAUCGUAUGUACCGAAUCGGUUUUGGGUUUUGGGGUUUUGGGAAAGUAUUAUGUUACGCCGUUCGGAUCUGCACU` gave a log2 enrichment of -0.21.
For `CCUCAAGUCCUGUGCUACACAUCGUAUGUACCGAAUCGGGAGGGAGGGGAGGGAAAGUAUUAUGUUACGCCGUUCGGAUCUGCACUUCCA`, the log2 enrichment was 1.37.
For `UCAAGUCCUGUGCUACACAUCGUAUGUACCGAAUCGGUUUGGUUUGGUUUUUGGAAAGUAUUAUGUUACGCCGUUCGGAUCUGCACUUCC`, the log2 enrichment was -0.454.
For `UCAAGUCCUGUGCUACACAUCGUAUGUACCGAAUCGGGAAAGGGUGGGAAAGGGAAAGUAUUAUGUUACGCCGUUCGGAUCUGCACUUCC`, the log2 enrichment was 1.04.
For `UUGUUUUUUUUUUGUUCUUUUUUUCCAUGUCACUAAAGGCCCUCGGGACCAAGGAUCACGUCAUGACUCCGGUGAGUUCACACGUGGUGG`, the log2 enrichment was 0.056.

Block 5 — method: RNA Bind-n-Seq; molecule type: RNA; matrix: in vitro; tested at: not given; notes: RNA with constant flanks, ends assumed; reference: input RNA pool; reading: higher = stronger binding
Target: RING finger protein unkempt homolog, zinc fingers 1-6, GST-SBP tag (UNK, Homo sapiens, UniProt Q9C0B0, residues 30-357)
Chain of UniProt Q9C0B0 (30-357, looked up): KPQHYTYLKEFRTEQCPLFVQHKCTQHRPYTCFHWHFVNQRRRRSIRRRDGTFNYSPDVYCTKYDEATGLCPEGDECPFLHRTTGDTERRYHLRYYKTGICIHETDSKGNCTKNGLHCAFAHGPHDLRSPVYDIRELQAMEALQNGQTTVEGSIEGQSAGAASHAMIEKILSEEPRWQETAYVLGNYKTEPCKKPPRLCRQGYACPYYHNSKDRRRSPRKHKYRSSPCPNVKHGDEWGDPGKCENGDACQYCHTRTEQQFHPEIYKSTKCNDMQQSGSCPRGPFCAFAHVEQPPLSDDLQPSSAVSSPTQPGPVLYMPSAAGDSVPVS
All sequences stand within: GGGAGUUCUACAGUCCGACGAUC … CAACAGAGGAUUGAGCAUCA
The bound/input enrichment of `GCCUGGCUUGUGGAUCAUGUAUAUGCCAUCCGCGAGGCAGCCACCAGCAACCUGAAGAAGCCCGUGGAAAAGUUUGGGAAGGAGUGGGCCCAUGCCACAAUCAUCCCCAAGGUCUUGGCC` is reported as 0.107 ratio.
The bound/input enrichment of `CACCAUUCUUUGUUUCCUAGGGAGUGACUGUCAAGUACUAAUUCCUCAAGAUGGUAUUUGUCCGUCCAAAAUGUUAAGCUUUUUAAAAAAAAAAUGUUACUUGAUUUCUUUUGAUUUGUA` is reported as 0.705 ratio.
`GCACGUCAGAAGAUGACCCUUGAGUCAUUCUCUAAGGUGCCGCCUUUGAUUGCAAGCUUUGUCCGGUCGAAGAGAAAGGAAGACUCUCCGAACCUAAGGGAAGCGUUGGAGAACGAAUUC` has a bound/input enrichment of 0.103 ratio.
`UGGAUGAAUUUUUAGUGAAAAAUGAUCCCUGCCGAGCACGAGGUAGAACUAACAUUGAACUCCGAGAGAAAUUCAUCCUACCAGAGGGAGCAUCCCAGGGAAUGACCCCCUUCCGCUCAC` has a bound/input enrichment of 0.257 ratio.
`AUUUUGUAAAUACUGUAUACCAUGUAUUAUGUGUAUAUUGUUCAUACUUGAGAGGUAUAUUACCGUUUUGUUAUGAAAGUAUGUAUUUUGCCCUGCCCACAUUGCAGGUGUUUUGUAUAU` gave a bound/input enrichment of 0.346 ratio.
With `UAUUUUUAUAAUUUUUACUGAUGCUCAGUAACCAUGAAAAACUGUGCACAUUCAUGUACUAACCGAUCUGUACCUAUCUAUCUCUGUACGCAUAUAUACAGUUCACUGUAGAAAACCACA` the bound/input enrichment was 3.99 ratio.
The bound/input enrichment of `GCCACAUCCGGUGAUAUUUGGCCUGGCCUUUCAGCUUAUGAUAAUAGUCCUAGAUCACCCCACCGUCCUUCACCUAUUGCUACACCACCUAGUCAGAGUUCAUCUUGCUCUGAUGCUCCC` is reported as 1.37 ratio.
With `AUUUUUUUUUUUAAAUGUGUGUAGACUGUAACUUUCUUUUCAGUUCGUAUGCAGAACAUAUUCCGCCAUUACCCAUGCAACACCACCCGAUAUAUUACUGAUUUAGAAGCAAAGAUUUCA` the bound/input enrichment was 1.37 ratio.

Some of these lines once more (block 2):
For `Q7Y`, “relative binding score” read 24.6%.
`V145P`: “relative binding score” -9.16%.
For `E89D`, “relative binding score” read 8.55%.
For `C72R`, “relative binding score” read -1.61%.
`L82C` — result for “relative binding score”: 15.8%.
